# Experimental data pooled from the literature.
# A part holds a random share of what one study measured.
# Chain of UniProt O43293 (whole entry, looked up): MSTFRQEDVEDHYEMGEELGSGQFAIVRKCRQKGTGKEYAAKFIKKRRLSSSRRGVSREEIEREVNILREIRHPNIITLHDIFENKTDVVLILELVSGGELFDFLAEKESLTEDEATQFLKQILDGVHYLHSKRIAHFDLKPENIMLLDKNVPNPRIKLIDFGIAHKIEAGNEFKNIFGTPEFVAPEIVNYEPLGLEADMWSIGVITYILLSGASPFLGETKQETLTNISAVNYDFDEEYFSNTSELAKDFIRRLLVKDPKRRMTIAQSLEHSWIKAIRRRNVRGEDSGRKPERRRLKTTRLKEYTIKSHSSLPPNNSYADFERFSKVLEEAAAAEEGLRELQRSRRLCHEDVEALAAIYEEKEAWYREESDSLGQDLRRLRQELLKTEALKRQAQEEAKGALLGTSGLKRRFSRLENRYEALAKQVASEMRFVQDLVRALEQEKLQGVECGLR
# Chain of UniProt P10721 (whole entry, unmodified, looked up): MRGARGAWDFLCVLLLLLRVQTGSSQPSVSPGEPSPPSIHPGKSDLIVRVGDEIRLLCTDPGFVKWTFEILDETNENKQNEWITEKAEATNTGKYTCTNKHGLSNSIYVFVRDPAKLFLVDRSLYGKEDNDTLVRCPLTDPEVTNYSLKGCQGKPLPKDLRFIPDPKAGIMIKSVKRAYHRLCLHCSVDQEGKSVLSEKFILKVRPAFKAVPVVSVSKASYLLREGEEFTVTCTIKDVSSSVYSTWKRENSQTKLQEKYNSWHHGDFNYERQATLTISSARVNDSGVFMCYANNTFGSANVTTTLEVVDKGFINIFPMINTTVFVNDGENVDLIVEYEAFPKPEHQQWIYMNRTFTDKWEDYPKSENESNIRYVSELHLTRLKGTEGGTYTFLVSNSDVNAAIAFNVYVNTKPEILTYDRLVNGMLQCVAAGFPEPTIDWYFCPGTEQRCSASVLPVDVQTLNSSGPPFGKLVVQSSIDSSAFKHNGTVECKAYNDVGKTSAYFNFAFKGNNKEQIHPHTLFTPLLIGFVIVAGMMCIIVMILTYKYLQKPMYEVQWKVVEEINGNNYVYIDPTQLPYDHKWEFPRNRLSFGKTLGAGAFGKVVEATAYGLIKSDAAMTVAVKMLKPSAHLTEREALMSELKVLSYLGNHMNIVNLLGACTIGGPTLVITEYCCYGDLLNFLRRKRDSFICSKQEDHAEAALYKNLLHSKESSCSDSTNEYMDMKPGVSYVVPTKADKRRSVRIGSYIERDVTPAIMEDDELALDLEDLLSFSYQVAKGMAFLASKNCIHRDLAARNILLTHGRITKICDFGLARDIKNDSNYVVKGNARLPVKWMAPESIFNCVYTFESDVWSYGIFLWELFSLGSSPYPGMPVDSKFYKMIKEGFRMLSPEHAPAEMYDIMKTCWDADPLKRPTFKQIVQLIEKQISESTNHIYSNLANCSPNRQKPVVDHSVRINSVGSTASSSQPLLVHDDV
# Chain of UniProt P42336 (whole entry, unmodified, looked up): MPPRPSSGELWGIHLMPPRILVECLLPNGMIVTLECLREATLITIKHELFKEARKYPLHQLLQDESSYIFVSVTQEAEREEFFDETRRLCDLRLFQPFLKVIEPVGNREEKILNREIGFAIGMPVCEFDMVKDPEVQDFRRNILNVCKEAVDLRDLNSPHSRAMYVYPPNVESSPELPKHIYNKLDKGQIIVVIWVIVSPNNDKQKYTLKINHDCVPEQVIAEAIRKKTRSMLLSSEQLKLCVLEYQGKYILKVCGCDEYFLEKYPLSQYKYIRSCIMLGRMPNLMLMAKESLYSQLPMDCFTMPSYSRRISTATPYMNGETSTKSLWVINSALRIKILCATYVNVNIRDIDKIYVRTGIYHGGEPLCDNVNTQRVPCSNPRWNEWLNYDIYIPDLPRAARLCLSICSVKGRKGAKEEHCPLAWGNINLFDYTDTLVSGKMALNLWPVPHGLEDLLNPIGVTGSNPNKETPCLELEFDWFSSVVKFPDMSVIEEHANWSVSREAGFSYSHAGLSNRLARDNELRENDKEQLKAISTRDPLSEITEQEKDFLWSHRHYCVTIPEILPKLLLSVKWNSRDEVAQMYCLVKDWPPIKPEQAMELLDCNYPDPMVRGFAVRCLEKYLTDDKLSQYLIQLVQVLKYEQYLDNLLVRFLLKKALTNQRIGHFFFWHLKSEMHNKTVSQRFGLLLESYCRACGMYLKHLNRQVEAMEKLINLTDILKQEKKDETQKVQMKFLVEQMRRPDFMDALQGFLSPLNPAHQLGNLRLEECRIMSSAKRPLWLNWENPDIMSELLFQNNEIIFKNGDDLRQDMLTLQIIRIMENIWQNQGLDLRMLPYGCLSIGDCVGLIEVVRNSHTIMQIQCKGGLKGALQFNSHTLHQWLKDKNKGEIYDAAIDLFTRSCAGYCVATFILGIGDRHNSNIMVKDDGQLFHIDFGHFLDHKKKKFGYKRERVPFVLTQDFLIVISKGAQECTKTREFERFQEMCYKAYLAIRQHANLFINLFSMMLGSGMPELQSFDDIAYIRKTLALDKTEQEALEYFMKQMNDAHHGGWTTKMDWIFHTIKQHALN
# Chain of UniProt Q9Y5S2 (whole entry, looked up): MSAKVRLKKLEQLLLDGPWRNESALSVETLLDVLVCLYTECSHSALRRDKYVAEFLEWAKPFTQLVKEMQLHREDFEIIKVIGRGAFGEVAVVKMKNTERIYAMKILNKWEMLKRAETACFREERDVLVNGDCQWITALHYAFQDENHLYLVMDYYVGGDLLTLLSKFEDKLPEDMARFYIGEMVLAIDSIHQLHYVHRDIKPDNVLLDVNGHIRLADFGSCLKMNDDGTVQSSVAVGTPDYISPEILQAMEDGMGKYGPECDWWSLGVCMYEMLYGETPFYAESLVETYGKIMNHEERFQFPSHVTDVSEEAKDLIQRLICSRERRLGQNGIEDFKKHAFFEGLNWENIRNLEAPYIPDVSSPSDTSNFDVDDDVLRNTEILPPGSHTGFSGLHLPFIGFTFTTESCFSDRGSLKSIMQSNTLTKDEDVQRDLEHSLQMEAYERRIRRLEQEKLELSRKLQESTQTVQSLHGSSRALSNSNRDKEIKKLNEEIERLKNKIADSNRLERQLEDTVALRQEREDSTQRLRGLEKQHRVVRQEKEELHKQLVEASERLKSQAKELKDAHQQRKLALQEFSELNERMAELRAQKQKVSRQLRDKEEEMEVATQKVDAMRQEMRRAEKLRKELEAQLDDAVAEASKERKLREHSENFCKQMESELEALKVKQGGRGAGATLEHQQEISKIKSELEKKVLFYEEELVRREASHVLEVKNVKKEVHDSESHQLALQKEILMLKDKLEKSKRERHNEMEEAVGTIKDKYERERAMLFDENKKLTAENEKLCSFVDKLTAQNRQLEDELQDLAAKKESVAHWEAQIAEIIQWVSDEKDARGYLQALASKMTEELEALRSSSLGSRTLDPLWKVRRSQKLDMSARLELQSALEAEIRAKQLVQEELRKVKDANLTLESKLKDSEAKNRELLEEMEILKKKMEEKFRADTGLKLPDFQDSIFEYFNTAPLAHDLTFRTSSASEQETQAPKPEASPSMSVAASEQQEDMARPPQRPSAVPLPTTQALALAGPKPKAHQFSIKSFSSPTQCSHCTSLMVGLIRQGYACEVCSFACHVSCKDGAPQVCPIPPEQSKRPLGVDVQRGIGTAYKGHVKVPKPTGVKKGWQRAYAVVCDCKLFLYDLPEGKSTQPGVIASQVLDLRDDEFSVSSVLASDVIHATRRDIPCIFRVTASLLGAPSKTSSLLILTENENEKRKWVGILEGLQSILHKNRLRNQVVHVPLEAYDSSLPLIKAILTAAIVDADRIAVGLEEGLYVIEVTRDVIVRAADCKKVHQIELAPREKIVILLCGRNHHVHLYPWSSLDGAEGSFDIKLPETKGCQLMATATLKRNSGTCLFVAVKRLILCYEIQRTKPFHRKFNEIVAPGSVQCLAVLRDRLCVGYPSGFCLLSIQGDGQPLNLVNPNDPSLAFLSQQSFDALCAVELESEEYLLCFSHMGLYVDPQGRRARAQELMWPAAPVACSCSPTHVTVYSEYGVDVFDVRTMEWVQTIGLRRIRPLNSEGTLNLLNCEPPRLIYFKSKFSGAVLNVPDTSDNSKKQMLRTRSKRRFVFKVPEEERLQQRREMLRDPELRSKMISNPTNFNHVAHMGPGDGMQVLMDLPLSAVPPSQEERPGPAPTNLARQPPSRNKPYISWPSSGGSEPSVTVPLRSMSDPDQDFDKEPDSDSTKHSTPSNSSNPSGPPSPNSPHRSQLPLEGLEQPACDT
# Chain of UniProt P43403 (whole entry, looked up): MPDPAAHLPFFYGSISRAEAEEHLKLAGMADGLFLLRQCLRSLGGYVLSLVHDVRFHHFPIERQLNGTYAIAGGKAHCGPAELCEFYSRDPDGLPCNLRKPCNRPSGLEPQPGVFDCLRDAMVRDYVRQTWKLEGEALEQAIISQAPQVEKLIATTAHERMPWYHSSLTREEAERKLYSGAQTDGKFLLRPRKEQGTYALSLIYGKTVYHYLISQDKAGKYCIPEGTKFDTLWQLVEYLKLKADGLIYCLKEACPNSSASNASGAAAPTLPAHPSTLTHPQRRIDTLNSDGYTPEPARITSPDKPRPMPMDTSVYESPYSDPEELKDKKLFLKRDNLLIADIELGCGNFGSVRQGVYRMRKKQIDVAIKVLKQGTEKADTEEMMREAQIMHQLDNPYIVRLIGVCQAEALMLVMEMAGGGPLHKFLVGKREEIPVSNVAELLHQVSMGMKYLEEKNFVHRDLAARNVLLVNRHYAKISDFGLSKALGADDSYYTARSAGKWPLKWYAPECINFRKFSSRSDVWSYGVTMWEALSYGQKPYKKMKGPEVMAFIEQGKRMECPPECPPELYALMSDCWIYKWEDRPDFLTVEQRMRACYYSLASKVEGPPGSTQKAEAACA

# Sample 1
# SMILES: COc1cc(C(=O)N2CCC(N3CCN(C)CC3)CC2)ccc1Nc1ncc2c(n1)N(C)c1ccccc1C(=O)N2C
# Method: KINOMEscan
# Tested at: 10 µM
# Relative to: DMSO control
# Reading: lower = stronger binding
target,binding
PRKD2,59%
RIPK1,99%
CAMK2G,47%
CSNK1G1,100%
NEK7,100%
STK36,97%
PCTK3,100%
TIE1,100%
NEK5,100%
GSK3A,100%
DDR2,100%
STK16,62%
CDK9,100%
TRPM6,100%
CSNK1A1,100%
INSR,84%
PIP5K2C,40%
RAF1,100%

# Sample 2
# Compound: O=C(Nc1ccccc1)Nc1cccc(Oc2ccc3nccn3n2)c1
# Tested at: 1 µM
target,test,conditions,scale,remaining binding [%]
"COQ8A (Homo sapiens, UniProt Q8NI60)","competitive binding panel, measured: ADCK3",,relative to: vehicle,95
"CDC42BPB (Homo sapiens, UniProt Q9Y5S2)",competitive binding,MRCKB,,96
"NEK1 (Homo sapiens, UniProt Q96PY6)",competitive binding panel,,relative to: vehicle,100
"CDPK1 (Plasmodium falciparum, UniProt P62344)","competitive binding, scanMAX","Plasmodium falciparum CDPK1, 1000 nM",,81
"KIT (Homo sapiens, UniProt P10721)",competitive binding scan,autoinhibited form,,61
"PHKG1 (Homo sapiens, UniProt Q16816)",competitive binding panel,,relative to: vehicle,100
"LTK (Homo sapiens, UniProt P29376)",competitive binding panel,,relative to: vehicle,100
"BMPR1A (Homo sapiens, UniProt P36894)",competitive binding panel,,relative to: vehicle,100
"CDK4 (Homo sapiens, UniProt P11802)",competitive binding scan,with: cyclin D3,,100
"MINK1 (Homo sapiens, UniProt Q8N4C8)",competitive binding,MINK,,87

# Sample 3
# SMILES: C[C@H](c1ccnc(Nc2nc3ccc(-c4cc(N(C)C)ncn4)cc3[nH]2)c1)N1CCN(C(=O)CC(F)(F)F)CC1
# Method: competition with immobilised ligand
# Tested at: 0.1 µM
target,test,remaining binding
"CDK17 (Homo sapiens, UniProt Q00537)",cell-free assay,100%
"CSNK2A2 (Homo sapiens, UniProt P19784)",cell-free assay,100%
"EPHA5 (Homo sapiens, UniProt P54756)",cell-free assay,81%
"FGFR4 (Homo sapiens, UniProt P22455)",cell-free assay,98%
"HIPK2 (Homo sapiens, UniProt Q9H2X6)",cell-free assay,100%
"EPHA1 (Homo sapiens, UniProt P21709)",cell-free assay,99%
"ACVR1B (Homo sapiens, UniProt P36896)",cell-free assay,94%
"DAPK3 (Homo sapiens, UniProt O43293)",cell-free assay,90%
"NIM1K (Homo sapiens, UniProt Q8IY84)",cell-free assay,100%
"PRKX (Homo sapiens, UniProt P51817)",cell-free assay,99%
"PIK3CA (Homo sapiens, UniProt P42336, I800L)",cell-free assay,100%
"PIK3CA (Homo sapiens, UniProt P42336, H1047L)",cell-free assay,100%
"LATS2 (Homo sapiens, UniProt Q9NRM7)",cell-free assay,80%
"KIT (Homo sapiens, UniProt P10721, T670I/V559D)",cell-free assay,99%
"ZAP70 (Homo sapiens, UniProt P43403)",cell-free assay,100%
"SRPK1 (Homo sapiens, UniProt Q96SB4)",cell-free assay,85%
"DCLK2 (Homo sapiens, UniProt Q8N568)",cell-free assay,85%
"TEC (Homo sapiens, UniProt P42680)",binding,100%
"DCLK3 (Homo sapiens, UniProt Q9C098)",cell-free assay,100%
"MAPK14 (Homo sapiens, UniProt Q16539)",cell-free assay,100%
"NUAK2 (Homo sapiens, UniProt Q9H093)",cell-free assay,95%
"MAPK7 (Homo sapiens, UniProt Q13164)",cell-free assay,100%
"TIE1 (Homo sapiens, UniProt P35590)",cell-free assay,85%

# Sample 4
# Target: Death-associated protein kinase 3 (DAPK3, Homo sapiens, UniProt O43293)
# Effect on: enzyme activity
# Mode: inhibitor
# Tested at: 0.5 µM
# Relative to: control
SMILES,remaining activity
c1ccc(-c2cnc(Nc3ccc(OCCN4CCCC4)cc3)s2)cc1,105%
c1ccc(-c2[nH]ncc2-c2ccnc3ccccc23)nc1,101%
Nc1cccc(-c2cc3c(Oc4cccc(O)c4)ncnc3[nH]2)c1,94%
Cc1cn(-c2cc(NC(=O)c3ccc(C)c(Nc4nccc(-c5cccnc5)n4)c3)cc(C(F)(F)F)c2)cn1,97%
COc1cc2ncnc(Nc3cccc(Cl)c3)c2cc1OC,94.6%
O=c1cc(-c2cccc3c2Sc2ccccc2S3)oc(N2CCOCC2)c1,106%
N#C/C(=C\c1ccc(O)c(O)c1)C(=O)NCc1ccccc1,86.5%
Cn1nc2c3c(cccc31)C(=O)c1ccccc1-2,102%
CN(C)C[C@H]1CCn2c(c(C3=C(c4cn(C)c5ccccc45)C(=O)NC3=O)c3ccccc32)C1,95.2%
CCN(CC)CCNC(=O)c1c(C)[nH]c(/C=C2\C(=O)Nc3ccc(F)cc32)c1C,74.2%
CCOc1nc(NC(=O)Cc2cc(OC)ccc2OC)cc(N)c1C#N,111%
O=C1c2ccccc2-c2n[nH]c3cccc1c23,88.4%
CN([C@@H](Cc1ccc(OS(=O)(=O)c2cccc3cnccc23)cc1)C(=O)N1CCN(c2ccccc2)CC1)S(=O)(=O)c1cccc2cnccc12,106%
Cc1cc2ncc(-c3ccccc3)nc2cc1C,90.3%
O=C(Nc1cccc(Nc2nccc(Nc3cccc(C(F)(F)F)c3)n2)c1)C1CC1,94.3%
Ic1cccc(CSc2nnc(-c3ccncc3)o2)c1,107%
C[C@@H]1CCN(C(=O)CC#N)C[C@@H]1N(C)c1ncnc2[nH]ccc12,106%
COc1cc2c(cc1OC)-c1[nH]nc(Nc3cccc(F)c3)c1C2,100%
O=C1C(Cl)=C(N2C(=O)CCC2=O)C(=O)c2ccccc21,114%
CCN(CC)CCNC(=O)c1c(C)[nH]c(/C=C2\C(=O)Nc3ccc(Cl)cc32)c1C,54.3%
CCN(CC)C(=O)c1ccc(Nc2nc(OCC3CCCCC3)c3[nH]cnc3n2)cc1,98.4%
COc1cc2ncnc(Nc3ccc(O)c(Br)c3)c2cc1OC,99.1%
O=C(NC(NC(=S)Nc1ccc(F)c([N+](=O)[O-])c1)C(Cl)(Cl)Cl)C(c1ccccc1)c1ccccc1 (stereo not drawn),103%
N#Cc1c(NC(=O)c2cccc3ccccc23)sc2c1CCCC2,110%

# Excerpt of the above (sample 3):
target,test,remaining binding
"DAPK3 (Homo sapiens, UniProt O43293)",cell-free assay,90%
"NIM1K (Homo sapiens, UniProt Q8IY84)",cell-free assay,100%
"PRKX (Homo sapiens, UniProt P51817)",cell-free assay,99%
"PIK3CA (Homo sapiens, UniProt P42336, I800L)",cell-free assay,100%
"PIK3CA (Homo sapiens, UniProt P42336, H1047L)",cell-free assay,100%
"LATS2 (Homo sapiens, UniProt Q9NRM7)",cell-free assay,80%
"KIT (Homo sapiens, UniProt P10721, T670I/V559D)",cell-free assay,99%
"ZAP70 (Homo sapiens, UniProt P43403)",cell-free assay,100%
"SRPK1 (Homo sapiens, UniProt Q96SB4)",cell-free assay,85%
